Measured values pooled from the literature.
Every numbered part comes from another study and shows a few of its results, in no order. Substitutions count along the parent as printed.

Series 1
Target: Histone acetyltransferase KAT6A, both winged helices, GST fusion (KAT6A, Homo sapiens, UniProt Q92794, residues 1-181)
Technique: protein binding microarray
Form: double-stranded DNA, one strand shown
Medium: in vitro
Concentration: not given
Notes: 8-mer, flanks averaged, mean of 2 arrays, mostly near background
Baseline: not given
Reading: higher = stronger binding
Target sequence (chain): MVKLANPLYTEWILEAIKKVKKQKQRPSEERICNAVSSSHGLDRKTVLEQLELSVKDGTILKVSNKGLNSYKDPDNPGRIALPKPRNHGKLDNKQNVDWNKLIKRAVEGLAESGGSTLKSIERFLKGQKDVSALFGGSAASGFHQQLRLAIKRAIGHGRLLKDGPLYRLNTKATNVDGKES
| Strand | E-score |
| --- | --- |
| ATGTTTGA | -0.186 |
| GCATTCAC | 0.0293 |
| ACGATTAT | 0.0655 |
| ACCTGTCG | -0.00334 |
| TATCCGAA | 0.104 |
| GATGTTAA | -0.127 |
| CGGTAGAC | 0.225 |
| AACTAAAC | -0.0754 |
| CTCACCGA | -0.0865 |
| AGCCAACA | -0.074 |
| TGAAAGAA | -0.1 |
| AAGTTCCT | 0.0166 |
| ACATACAT | -0.125 |
| CTGGCGGC | 0.237 |
| CCGCCAAG | 0.152 |
| CTCAGTGC | -0.064 |
| AACGGAGA | 0.196 |
| ACGCAGCG | 0.203 |
| AAGGAGAT | 0.00084 |
| AATCTGTC | -0.103 |

Series 2
Target: ABI1, truncated, D143A, DHFR fusion (Arabidopsis thaliana)
Technique: DHFR PCA, deep sequencing
Medium: yeast
Notes: methotrexate growth selection, single substitutions
Added: (+)-ABA 710 µM
Baseline: wild-type fitted maximum
Reading: higher = stronger binding
Starting sequence: PYL1, truncated, DHFR fusion (Arabidopsis thaliana); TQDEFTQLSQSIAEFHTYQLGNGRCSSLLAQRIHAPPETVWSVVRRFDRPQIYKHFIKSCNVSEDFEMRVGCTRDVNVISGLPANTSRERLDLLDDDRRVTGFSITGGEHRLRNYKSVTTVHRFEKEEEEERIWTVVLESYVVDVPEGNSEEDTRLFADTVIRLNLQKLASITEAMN; partner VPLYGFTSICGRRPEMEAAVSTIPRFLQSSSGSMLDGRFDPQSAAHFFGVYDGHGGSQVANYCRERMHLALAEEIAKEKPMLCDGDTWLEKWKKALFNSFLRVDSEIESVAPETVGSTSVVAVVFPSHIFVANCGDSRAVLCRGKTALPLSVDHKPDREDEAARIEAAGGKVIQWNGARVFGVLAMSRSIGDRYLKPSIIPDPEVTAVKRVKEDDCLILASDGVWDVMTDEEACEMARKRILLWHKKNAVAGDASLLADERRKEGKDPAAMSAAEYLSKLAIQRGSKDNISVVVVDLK
| Variant | relative binding score [%] |
| --- | --- |
| V143Q | 81.7 |
| R88F | 107 |
| S87A | 94.7 |
| Q31V | 75.4 |
| R69D | 102 |
| H16T | 18 |
| E130T | 103 |
| V78Y | 54.7 |
| E109Y | 91 |
| Y115A | -4.63 |
| L112A | 10.8 |
| D95N | 104 |
| E125M | 105 |
| Y18E | 96.2 |
| F66A | 99.9 |
| T17Q | 93.7 |
| V78M | 97.3 |

Series 3
Target: Interferon regulatory factor 3, full length, phosphomimetic (IRF3, Homo sapiens, UniProt Q14653, residues 1-427, S386D/S396D/S398D/S402D/T404D/S405D)
Technique: protein-binding microarray
Form: double-stranded DNA, one strand shown
Medium: in vitro
Concentration: 2540 nM top
Notes: 60-bp whole probe
Added: salmon DNA 0.4 mg/ml
Baseline: random background probes
Reading: higher = stronger binding
Shared flanks, not repeated: GCCTAGCAC … GTCTTGATTCGCTTGACGCTGCTG
Residues (chain): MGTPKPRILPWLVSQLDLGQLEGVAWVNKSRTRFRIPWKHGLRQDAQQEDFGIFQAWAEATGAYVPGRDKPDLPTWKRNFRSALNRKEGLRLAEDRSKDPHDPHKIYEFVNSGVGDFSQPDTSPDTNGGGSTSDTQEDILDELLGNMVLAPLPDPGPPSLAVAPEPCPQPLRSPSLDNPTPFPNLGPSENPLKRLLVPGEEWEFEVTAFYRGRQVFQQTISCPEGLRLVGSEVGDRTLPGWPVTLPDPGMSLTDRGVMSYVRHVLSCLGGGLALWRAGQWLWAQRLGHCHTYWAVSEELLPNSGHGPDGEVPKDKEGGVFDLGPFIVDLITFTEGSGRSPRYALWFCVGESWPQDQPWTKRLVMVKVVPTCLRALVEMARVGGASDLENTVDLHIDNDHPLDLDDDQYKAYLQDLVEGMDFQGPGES
| Strand | fitted relative affinity [z-score] |
| --- | --- |
| TTAGGTTTCCTTCTCGTTTAGTGCTAG | 10.1 |
| ATTTTTTAGCTTCTCAATTAGTGCTAG | 1.06 |
| GACGGTTCCCTTTTCCTGTCGTGCTAG | 6.68 |
| TTAGATTTCAGTCACGATTAGTGCTAG | 0.553 |
| TCATCCATGGGTATGGCACTGTGCTAG | -0.368 |
| TTCGGACTGGGGTATCGGTTAGTGCTA | 0.0228 |
| GACGATTCCAGACTGGAGACGTGCTAG | 0.865 |
| GTAGGTTTCGGGTATCGGTTAGTGCTA | 4.62 |
| TGAAGACTCTCTTGTCTGGATGTGCTA | -0.732 |
| ATAAAAGAACTCCTGGGGGAGTGCTAG | -0.627 |
| TACGGACTGGACTATCGGGACGTGCTA | -0.464 |
| GACGAACTTAGTCTCGAGACGTGCTAG | -0.0342 |
| GACGATATCGGATATCGAGACGTGCTA | 0.767 |
| TTAGGTATCAGTCTCGGTTAGTGCTAG | 3.77 |

Series 4
Target: CCNA2, cyclin fold, Cln2 fusion (human)
Technique: yeast growth competition, sequencing
Medium: yeast
Notes: strong parent motif
Baseline: not given
Reading: higher = stronger binding
Starting sequence: PKN2 docking peptide (human); VSAVRKLDFSDTM; partner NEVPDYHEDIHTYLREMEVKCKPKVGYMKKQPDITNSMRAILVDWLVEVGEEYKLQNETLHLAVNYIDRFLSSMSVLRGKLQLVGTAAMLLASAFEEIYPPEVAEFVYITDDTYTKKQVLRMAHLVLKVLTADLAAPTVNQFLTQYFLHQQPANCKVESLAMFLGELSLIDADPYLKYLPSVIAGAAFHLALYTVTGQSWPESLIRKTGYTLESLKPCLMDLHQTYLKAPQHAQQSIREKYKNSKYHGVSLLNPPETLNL
| Variant | normalised enrichment score |
| --- | --- |
| V4E | 1.27 |
| A3H | 4.68 |
| S10Q | 5.08 |
| S10K | 4.56 |
| D11S | 5.35 |
| S2P | 4.87 |
| K6N | 2.63 |
| D11L | 5.14 |
| T12V | 4.72 |
| A3Q | 0.589 |
| S2R | 5.88 |
| D8W | 4.37 |
| A3L | 3.81 |
| F9T | 0.216 |
| D11K | 5.34 |
| D11I | 4.92 |
| V4H | 5.22 |
| A3Y | 4.15 |

Series 5
Target: RNA binding protein fox-1 homolog 2, RRM domain, GST-SBP tag (RBFOX2, Homo sapiens, UniProt O43251-10, residues 100-194)
Technique: RNA Bind-n-Seq
Form: RNA
Medium: in vitro
Concentration: 365 nM
Notes: natural RNA segment, single round, ends assumed
Baseline: no-protein control
Reading: higher = stronger binding
Shared flanks, not repeated: GGGAGUUCUACAGUCCGACGAUC … UGGAAUUCUCGGGUGCCAA
Target sequence (chain): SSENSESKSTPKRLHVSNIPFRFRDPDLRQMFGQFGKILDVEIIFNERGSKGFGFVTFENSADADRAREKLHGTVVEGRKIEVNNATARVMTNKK
| Strand | RBNS enrichment (R) |
| --- | --- |
| UUUCACUCCCUCUUGGUUUUUAUCAAAUUUGCCAUGACAUUUCAUCUGGGUGGUCUGAAUAUUAAAGCUCUUCAUUUCUGGAGAUGGGGCAGCAGGUGGCUCUUCUGCUG | 0.645 |
| UGUAGACACUCUCCCAGCCAGCAGCGCUCCUGCUUGUCCACCUGAGCAACGCAAUCCACUCCAUGCUGACUGGCACCAGACAGUGAGCGGCUCAGGAGUGAUGGAAAGCG | 0.288 |
| GACAGACUGGAGCCAUGGCCUUAGGCCAUAUAGCCUUACUAUCAAGUGUCUUCCUCCACGCGGAUUCCUGUACACCUUGAUCCAAAGCAGUGCUCCCAAGAGCAGCUCCU | 0.242 |
| UAUAGCCCCUGUCCUUCAUGUGUCUGGCCAUGUAGACUCUCAGGCAUCCUGUCCAUUUUUAACCUGUGUUCUGCCAGUAUGACUGUGUAGCUCAGUCAUAUUGAACAGGG | 0.563 |
| CUUUCUGCCUGGGAUGUCUGCUGCAAAAGCAGUGACCUCUGACCCCUGGUGACCUUUGCUCUCGGCACCGGGCCUGUUUCCUUUGCUUUGAGUGCCUUUUUGAACGCUGC | 1.17 |
| ACUGAAAAGGUCGUGUAUAGGUUAGAGAUACAGGGAGCCCAUUUUAUAUUUGCAUACCCUUUUAUUUCCAAAACAAAAUGAGCUCUUUUCCCUUGAGACAAUAUCAUUCC | 0.435 |
| UUGAGGGGCAGGUUCCCCCAGGUGGUCCCCAGAUUUGCACUAAUGUUCCUCCCCUGGCCAGUUAGGGAUGGGAUGUUCUGUGUCUUGUGUGUCCCUCUCCCUAGUCUAAA | 1.3 |
| UCUUUGAGGGCAUUUAACUACAGGGGAGCAGUGGACUGAGGCUUGGCUUGAAUUAGACCACAAAGCUGGCUGUAUAUGGGAGAGUCCUUUGUUGCUUCCUUCCCUGGAGA | 0.679 |
| ACUUUUUUAUACACCUGUUCAUUUCUACUUAAAUUAUGGCACAGAUUGAUGCGCACCAGUCUUGAGGAAACGAUCUCCCUAUUCCCUUACCCUGUUACUCAGCCACGCCG | 0.811 |
| AAUAUCUGUCAUGAACCUGCCAAUUUGUACGUGUUAAGCAGCUGACAGAUGAUGCAAAAAAAACUAAGAUACACUGGAUUGUACUGGAUGAGUCUGAAAUUAGUGUUAAA | 6.01 |
| UCUGCUGGUGAAGUCUGUGUCCAAGGCAGGGGCCAGCAGAAACUCCAGCCUGCUGUCUACCAAAGGACUGUUCCCAGACCCUGUCUUUACCCUUCCCUUUUAAAGUCCCU | 1.43 |
| AGUAAUUACAGGUUAUAUACAGUAUACUGCUUUAGAGAGAAUUUGUUAAUUUGCUUGGUAUUUUCAUCAGAAUAUUACAUGACCUGGAAAGUUAAGUGGUUUUCAGUUCA | 0.765 |

Series 6
Target: Prothrombin, mature alpha-thrombin (F2, Homo sapiens, UniProt P00734)
Technique: aptamer microarray, sandwich
Form: DNA with 2'F-ANA
Medium: in vitro
Concentration: 200 nM
Notes: whole 15-mer aptamer, many near background
Added: Cy3 exosite-II aptamer, 400 nM
Reading: higher = stronger binding
Strand: GGTTGGTGTGGTTGG
| Modification | mean fluorescence intensity |
| --- | --- |
| 2'F-ANA at 1 2 3 6 11 12 13 14 15 | 153 a.u. |
| 2'F-ANA at 1 2 4 5 6 8 15 | 64.3 a.u. |
| 2'F-ANA at 2 4 6 9 10 14 | 71.5 a.u. |
| 2'F-ANA at 2 3 5 8 11 12 14 15 | 81.6 a.u. |
| 2'F-ANA at 2 8 9 11 12 14 15 | 168 a.u. |
| 2'F-ANA at 1 3 4 6 7 13 14 15 | 93.2 a.u. |
| 2'F-ANA at 1 2 5 7 10 11 13 | 59.2 a.u. |
| 2'F-ANA at 1 3 4 7 13 14 15 | 70.9 a.u. |
| 2'F-ANA at 3 5 8 9 11 12 13 | 192 a.u. |
| 2'F-ANA at 1 2 5 6 7 8 9 10 11 12 13 | 81.1 a.u. |
| 2'F-ANA at 2 4 5 7 8 9 10 13 14 | 46.5 a.u. |
| 2'F-ANA at 2 5 7 8 11 15 | 97.9 a.u. |
| 2'F-ANA at 2 3 6 8 9 10 12 | 438 a.u. |
| 2'F-ANA at 1 2 7 9 11 12 14 | 70.6 a.u. |
| 2'F-ANA at 1 3 5 6 8 9 11 | 59.5 a.u. |
| 2'F-ANA at 1 2 9 10 15 | 53.7 a.u. |
| 2'F-ANA at 1 4 8 9 10 13 | 48.4 a.u. |
| 2'F-ANA at 4 6 7 8 9 10 11 13 15 | 65.2 a.u. |
| 2'F-ANA at 1 2 3 4 5 6 7 13 14 | 49.2 a.u. |
| 2'F-ANA at 2 5 10 12 14 15 | 45.3 a.u. |
| 2'F-ANA at 1 2 3 6 8 9 11 12 15 | 322 a.u. |
| 2'F-ANA at 1 2 3 4 5 6 8 10 11 15 | 47 a.u. |
| 2'F-ANA at 1 2 3 4 6 12 14 | 70.8 a.u. |
| 2'F-ANA at 1 5 6 8 10 11 13 | 49.9 a.u. |
| 2'F-ANA at 1 3 5 6 7 9 10 11 12 13 14 | 66.2 a.u. |

For quick reference, copied from above (series 1):
| Strand | E-score |
| --- | --- |
| AATCTGTC | -0.103 |
| GATGTTAA | -0.127 |
| CCGCCAAG | 0.152 |
| CTCACCGA | -0.0865 |
| ACATACAT | -0.125 |
| AACTAAAC | -0.0754 |
| AAGTTCCT | 0.0166 |
| ATGTTTGA | -0.186 |
| GCATTCAC | 0.0293 |
| TATCCGAA | 0.104 |
| CTCAGTGC | -0.064 |
| CTGGCGGC | 0.237 |
| AAGGAGAT | 0.00084 |
| TGAAAGAA | -0.1 |
| ACGATTAT | 0.0655 |
| AGCCAACA | -0.074 |
| ACGCAGCG | 0.203 |
